# Results collected from several papers.
# Parts stem from different laboratories: compare values within a part only.

# Block 1 — partner: H2AC6 (Homo sapiens, UniProt Q93077); method: cross-linking MS; setting: hits only
Molecule,interaction screen
"H2AC20 (Homo sapiens, UniProt Q16777)",cross-linked
"H2BC11 (Homo sapiens, UniProt P06899)",cross-linked
"H2BC17 (Homo sapiens, UniProt P23527)",cross-linked

# Block 2 — method: universal PBM; form: double-stranded DNA, one strand shown; matrix: in vitro; concentration: 600 nM; direction: higher = stronger binding
# Target: Sal-like protein 4, full length isoform A (SALL4, Homo sapiens, UniProt Q9UJQ4, residues 1-1053)
# UniProt Q9UJQ4, sequence (whole entry, looked up): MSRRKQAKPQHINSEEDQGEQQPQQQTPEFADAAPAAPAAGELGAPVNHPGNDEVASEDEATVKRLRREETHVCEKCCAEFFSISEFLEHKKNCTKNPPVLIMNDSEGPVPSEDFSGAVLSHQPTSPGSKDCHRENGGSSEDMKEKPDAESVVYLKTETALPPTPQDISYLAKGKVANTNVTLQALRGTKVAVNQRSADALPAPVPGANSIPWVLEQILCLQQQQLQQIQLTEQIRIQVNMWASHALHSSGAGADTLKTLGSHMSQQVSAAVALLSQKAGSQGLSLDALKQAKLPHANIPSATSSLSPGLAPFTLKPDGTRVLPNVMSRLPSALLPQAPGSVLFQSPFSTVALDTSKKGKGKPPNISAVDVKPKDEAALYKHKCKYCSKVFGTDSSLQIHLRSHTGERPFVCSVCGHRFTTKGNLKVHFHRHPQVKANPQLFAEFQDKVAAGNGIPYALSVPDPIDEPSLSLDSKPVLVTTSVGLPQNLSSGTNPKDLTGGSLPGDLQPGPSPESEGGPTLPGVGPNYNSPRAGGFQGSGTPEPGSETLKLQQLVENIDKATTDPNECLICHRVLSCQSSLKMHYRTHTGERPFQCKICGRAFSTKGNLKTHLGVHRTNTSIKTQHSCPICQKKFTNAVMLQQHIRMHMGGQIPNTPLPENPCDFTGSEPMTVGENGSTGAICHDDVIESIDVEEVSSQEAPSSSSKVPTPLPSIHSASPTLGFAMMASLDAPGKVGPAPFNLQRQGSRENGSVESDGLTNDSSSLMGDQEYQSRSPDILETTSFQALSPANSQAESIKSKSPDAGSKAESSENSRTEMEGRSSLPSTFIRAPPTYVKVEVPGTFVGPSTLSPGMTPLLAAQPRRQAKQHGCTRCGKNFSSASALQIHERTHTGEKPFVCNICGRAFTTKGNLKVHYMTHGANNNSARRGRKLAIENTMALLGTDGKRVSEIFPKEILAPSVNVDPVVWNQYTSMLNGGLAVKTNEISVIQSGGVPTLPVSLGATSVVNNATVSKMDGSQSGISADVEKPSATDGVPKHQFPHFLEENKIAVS
# Setting: 8-mer, flanks averaged, mean of replicates
Oligonucleotide,E-score
TCATTGCA,0.0868
AAGTCCTC,-0.172
AGACGACC,-0.187
GACGCCGC,-0.412
GTGTACAC,0.0833
AAACTTGA,0.108
CTCGAACC,-0.215
ACTATACC,0.17
CCATGAGG,-0.238
CGTCAGAC,-0.191
CAGTATAG,0.187
ACGGAACG,-0.0674
GCACCAAC,-0.28
CCTACAGG,-0.238
ATCCACAA,0.16
AGGATTTA,0.201
AGGACGAA,-0.108
ACAGAATC,-0.0359
CTCGAACA,0.041
AAGGGGGT,-0.181
CACTTCCA,0.0869
AAGGAAAT,0.287
ATTGGAGC,0.0462
AGCGTAGA,-0.105
CAAGCCTG,-0.0931

# Block 3 — method: protein binding microarray; form: double-stranded DNA, one strand shown; matrix: in vitro; concentration: not given; reference: not given; direction: higher = stronger binding
# Target: Histone acetyltransferase KAT6A, both winged helices, GST fusion (KAT6A, Homo sapiens, UniProt Q92794, residues 1-181)
# Setting: 8-mer, flanks averaged, mean of 2 arrays, mostly near background
# Residues (chain): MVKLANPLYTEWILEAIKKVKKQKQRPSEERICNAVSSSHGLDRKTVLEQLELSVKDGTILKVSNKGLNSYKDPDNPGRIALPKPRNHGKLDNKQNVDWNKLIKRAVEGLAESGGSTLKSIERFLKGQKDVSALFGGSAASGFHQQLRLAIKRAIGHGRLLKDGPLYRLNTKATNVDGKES
Oligonucleotide,E-score
CTGAAGCA,-0.143
TGATTAAA,-0.0145
CTGCAACA,0.0868
CATCGAAC,-0.0179
ATAGTTTA,-0.166
AAGCTCGC,0.0315
AAATCGCG,0.15
TAAGATTA,-0.0685
GCAAAGAA,0.0366
AATGTGTG,-0.0896
GTGGTAAA,-0.139
GCTTTTAC,0.144
GTTTGCAA,-0.0576
CGCGTATA,0.251
AAGGAATC,-0.00242
CGGACCCG,0.306
GATTACAA,-0.00431
TAGCATGA,-0.24
TAGGACTA,0.0256
CACTGCTG,-0.176
CTCGGAAC,0.0835
CATGCCCA,-0.16
CAGTTGCC,0.0242
CTGGTCTA,-0.0691
AAAGTTGG,-0.292

# Block 4 — method: RNA Bind-n-Seq; form: RNA; matrix: in vitro; concentration: 200 nM; setting: whole 134-nt RNA, ends assumed; with: 150 mM KCl; reference: input library; direction: higher = stronger binding
# Target: Ras GTPase-activating protein-binding protein 1, full length (G3BP1, Homo sapiens, UniProt Q13283)
# UniProt Q13283, sequence (whole entry, looked up): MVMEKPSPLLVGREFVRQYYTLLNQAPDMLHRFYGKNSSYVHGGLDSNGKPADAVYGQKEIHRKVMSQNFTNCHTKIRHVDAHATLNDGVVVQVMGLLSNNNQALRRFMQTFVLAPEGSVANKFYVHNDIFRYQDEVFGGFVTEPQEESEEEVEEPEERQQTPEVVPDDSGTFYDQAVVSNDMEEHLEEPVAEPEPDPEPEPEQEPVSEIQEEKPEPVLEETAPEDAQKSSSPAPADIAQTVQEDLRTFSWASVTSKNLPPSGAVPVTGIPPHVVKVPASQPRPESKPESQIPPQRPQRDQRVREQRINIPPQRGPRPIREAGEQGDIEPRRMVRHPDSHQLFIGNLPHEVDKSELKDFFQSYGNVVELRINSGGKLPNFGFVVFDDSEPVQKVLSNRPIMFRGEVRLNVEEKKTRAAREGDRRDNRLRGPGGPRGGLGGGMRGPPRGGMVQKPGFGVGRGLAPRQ
# Shared flanks, not repeated: GGGAGUUCUACAGUCCGACGAUC … UGGAAUUCUCGGGUGUCAAGG
Oligonucleotide,log2 enrichment
UCAAGUCCUGUGCUACACAUCGUAUGUACCGAAUCGGGGCCGGGGCCGGGCCGGAAAGUAUUAUGUUACGCCGUUCGGAUCUGCACUUCC,-0.46
UUUUAAUUUGUUUGUCUCUCAUGAAACUAUGGUCUUUUAAAAAUUAAAGGUUUUUUUUUUCCCCUUAGACGAAACUGCAAAGGAAAUCCG,-0.645
UAACUUUAGAGGAGGAUCUGAUGGAUAUGGCAGUGGACGUGGAAUUGGGGAUGGCUAUAAUGGGUAUGGAGGAGGACCUGGAGGUGGCAA,0.304
CCUGUGCUACACAUCGUAUGUACCGAAUCGGGGCCCCCCGGGGCCCCCCGGGCCCCCCGGAAAGUAUUAUGUUACGCCGUUCGGAUCUGC,-0.595
CUGUGCUACACAUCGUAUGUACCGAAUCGGAAAAAAAGGGAAAAAAAGGGGAAAAAAAGGGAAAGUAUUAUGUUACGCCGUUCGGAUCUG,-1.08
CCUGUGCUACACAUCGUAUGUACCGAAUCGGGUUUUUUUGGUUUUUUUGGGUUUUUUUGGGAAAGUAUUAUGUUACGCCGUUCGGAUCUG,-1.09
UCCUCAAGUCCUGUGCUACACAUCGUAUGUACCGAAUCGGUGGUGGGGUGGAAAGUAUUAUGUUACGCCGUUCGGAUCUGCACUUCCAGC,-0.247
UCCUGUGCUACACAUCGUAUGUACCGAAUCGGAAAAAAGGGAAAAAAGGGGAAAAAAGGGAAAGUAUUAUGUUACGCCGUUCGGAUCUGC,-0.404
UCAAGUCCUGUGCUACACAUCGUAUGUACCGAAUCGGGCCGGGGCCGGGCCGGGAAAGUAUUAUGUUACGCCGUUCGGAUCUGCACUUCC,0.169
ACCAAGCAGGUGGGCAUCUUUGGGAAGUGGGGCAAGGGGGGGAUAGGGAGGGGGGUAACACUUUGGGAACAGGUGGUCCCAGGUCGUUUC,1.26

# Block 5 — method: RNA Bind-n-Seq; form: RNA; matrix: in vitro; concentration: 365 nM; reference: no-protein control; direction: higher = stronger binding
# Target: RNA binding protein fox-1 homolog 2, RRM domain, GST-SBP tag (RBFOX2, Homo sapiens, UniProt O43251-10, residues 100-194)
# Setting: natural RNA segment, single round, ends assumed
# Shared flanks, not repeated: GGGAGUUCUACAGUCCGACGAUC … UGGAAUUCUCGGGUGCCAA
# Construct (chain): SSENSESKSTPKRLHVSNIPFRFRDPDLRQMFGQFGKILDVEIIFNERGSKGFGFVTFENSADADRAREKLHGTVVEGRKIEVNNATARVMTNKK
Oligonucleotide,RBNS enrichment (R)
UAACAGUCUUUCUUAAAAUCAGUAUACUAUUUUAGUGGACUUCUGUCUCUAUGAGACAGCUAGUCCAUUACUGUUACUAUUGUAUUACUGUCAUGUUCUUUACAUGUCAC,0.241
UCCUUGCCACGUUAAUAAAGCCAAAAGCAGCGGGUGCUAUUCGUGGCAACACACUUCACUGAACCCACUUGCUUCCAAAACGAUGCCAGCCCGAGGCACUGCUACGCCAG,0.396
UUUGAGGCUGGGUGAAGUUAAAACACCUUUCCUUAUGUCUCCUGACCUGAAAUUGUAUAGUGUUGAUUUGUGCUGAGAUCAAGAGGCAGGUUAGAAGAACCUGACAUCCA,0.668
GAGAAUUGCUUGAACCCAGGAGGUGGAGGUUGCAGUAAGCCAAGAUCACACCACUGCACUCCAACCUGGACAACAGAGCGAGACUCCAUCUCAAAAAAAAAAAAAAAUUG,0.751
AGCUGCUUGAAGCUCUGUGUAAGAGCACUGCACUGACGGUUUGGAGACCUGAGCCUGGGUCCUGACUUUUCCAUUGACUAAGCUCUGUGGCCUUGGGCAAGUCACUCCCC,0.448
ACUGGCAGCACUACAGCGAGAACAUGUUCUCCUUUGAGGUGGAGAAGGAGCUGUUUGCCCUGAAACCCAUGAACUGCCCAGGACACUGGCUUAUGUUUGAUCAUCGGCCA,0.604
UUUUAUUCCCUUUCCUCUCUCCCCUCCCCACCUCGCUUCUUCCCAAUUUAGUAACUUAGAUGCUUCCAGCACAUACGUAGGUAGCUACCCCAGCCGGUUUGGAUUACAGG,0.762
AGCUUAAAAUUGCAGUGAUUGAGCAUAACCUACUUGUUUGUAUAAAUUAUUGAAAUCCAUUUGCACCCUGUUAAGAAUGGACUUAAAAGUACUGCUGGACAGGCAUGUGU,3.14
AGGUGGCCCCCACAGCUUCCCACACCCAUUACCCAGCCUGACAGGUGGGCAUGGUGGGCAUCCCAUGCAGCACAACCCAAAUGGACCACCACCACCUUGGAUGCAGCCAC,0.604
GUCUGGGGGAAAUCACCGGGGUUCAGGGGAGGGGAUUUCCCCGUGAAAUAAACUCAUCAUGGACACUGCCAUAGCUUUUUAAGAAUUGUUACUUUGUGUGUUCAAAAUAC,0.976
AUCAUAGCCCCCUGCCGCUCAGCCUUGUACAUAGACCUAUCCCUCCCUGCCCUGGUCCUCUUCCUGCCUCCUGUAAAUAUCUGUAUCUAGACCAGAAUAUUUUGUCCAAG,1.05
UUUGAAACAGUUUCACUGUGUCUGCCUGACUGGUCUGAAACUCACUAAGUAAACCAGGCUAGUUUCAAACACAGAUCUGCCUGCCUCUGCCUGCCAAUGCUCCAACUGAA,0.973

# Excerpt of the above (block 4):
Oligonucleotide,log2 enrichment
UCAAGUCCUGUGCUACACAUCGUAUGUACCGAAUCGGGGCCGGGGCCGGGCCGGAAAGUAUUAUGUUACGCCGUUCGGAUCUGCACUUCC,-0.46
UUUUAAUUUGUUUGUCUCUCAUGAAACUAUGGUCUUUUAAAAAUUAAAGGUUUUUUUUUUCCCCUUAGACGAAACUGCAAAGGAAAUCCG,-0.645
UAACUUUAGAGGAGGAUCUGAUGGAUAUGGCAGUGGACGUGGAAUUGGGGAUGGCUAUAAUGGGUAUGGAGGAGGACCUGGAGGUGGCAA,0.304
CCUGUGCUACACAUCGUAUGUACCGAAUCGGGGCCCCCCGGGGCCCCCCGGGCCCCCCGGAAAGUAUUAUGUUACGCCGUUCGGAUCUGC,-0.595
CUGUGCUACACAUCGUAUGUACCGAAUCGGAAAAAAAGGGAAAAAAAGGGGAAAAAAAGGGAAAGUAUUAUGUUACGCCGUUCGGAUCUG,-1.08
CCUGUGCUACACAUCGUAUGUACCGAAUCGGGUUUUUUUGGUUUUUUUGGGUUUUUUUGGGAAAGUAUUAUGUUACGCCGUUCGGAUCUG,-1.09
UCCUCAAGUCCUGUGCUACACAUCGUAUGUACCGAAUCGGUGGUGGGGUGGAAAGUAUUAUGUUACGCCGUUCGGAUCUGCACUUCCAGC,-0.247
UCCUGUGCUACACAUCGUAUGUACCGAAUCGGAAAAAAGGGAAAAAAGGGGAAAAAAGGGAAAGUAUUAUGUUACGCCGUUCGGAUCUGC,-0.404
UCAAGUCCUGUGCUACACAUCGUAUGUACCGAAUCGGGCCGGGGCCGGGCCGGGAAAGUAUUAUGUUACGCCGUUCGGAUCUGCACUUCC,0.169
ACCAAGCAGGUGGGCAUCUUUGGGAAGUGGGGCAAGGGGGGGAUAGGGAGGGGGGUAACACUUUGGGAACAGGUGGUCCCAGGUCGUUUC,1.26
